Assay results from different studies.
Protocols differ between the studies behind these lines. “And” joins repeats or separate records; there may be more than shown.
RPS6KA2: Ribosomal protein S6 kinase alpha-2 (RPS6KA2, Homo sapiens, UniProt Q15349)

Structure (SMILES) | target | test | system | setting | scale | quantity | value
Cc1cccc(O[C@H]2CCC[C@@H](C(C)CNCc3ccncc3)C2)c1 (relative stereo) | RPS6KA2 | kinome profiling | – | 1 µM | – | inhibition | 1%
O=C(Cc1ccc(OCc2ccccc2)cc1)NC1(C(=O)O)CCN(C(=O)c2ccc(-c3cccc(Cl)c3)cc2)CC1 | RPS6KA2 | enzyme activity, inhibitor | – | 10 µM | – | activity vs control | 105%
O=C=[N][Ru-4]123([n]4c5ccc(O)cc5c5c6c(c7cc(F)c[n+]1c7c54)C(=O)NC6=O)[S+]1CC[S+]2CC[S+]3CC1 (centres unmarked) | RPS6KA2 | enzyme activity | – | 100 nM, human enzyme, with: 10 µM ATP | relative to: untreated | remaining activity | 31%
CS(=O)(=O)Nc1cccc(-c2csc3cnc(Nc4ccc(N5CCN(CCCCCOc6cccc7c6C(=O)N(C6CCC(=O)NC6=O)C7=O)CC5)cc4)nc23)c1 (centres unmarked) | Ribosomal protein S6 kinase alpha-2, kinase domain 1 (RPS6KA2, Homo sapiens, UniProt Q15349) | probe labelling, inhibitor, KiNativ chemoproteomics | MOLT-4 | 1 µM | – | inhibition | 2.06%
C=CC(=O)N1Cc2nc(-c3cc(-c4cc(Cl)cnc4Cl)c(F)cc3F)n(-c3ccncn3)c2C1 | RPS6KA2 | cell-free assay, inhibitor | – | 1 µM | – | inhibition | 9.6%
CCn1cc(C(=O)O)c(=O)c2c(N)c(F)c(NC3CCCCC3)cc21 | RPS6KA2 | kinase activity | – | 0.1 µM, with: ATP at Km | – | inhibition | -7%
CN1CCN(Cc2ccc(-c3ccc(CO[C@H]4CCC[C@@H]4NC(=O)c4cc(-c5cnn(C)c5)cnc4N)cc3)cc2)CC1 | RPS6KA2 | enzyme activity, inhibitor | – | 0.1 µM | – | inhibition | 21%
COc1ccc(C(=O)/C=C/c2ccccc2-c2c[nH]c3ccc(C#N)cc23)c(O)c1 | RPS6KA2 | inhibitor | – | 20 µM | – | inhibition | 7%
C=CC(=O)Nc1cccc(-c2cnc3[nH]cc(C(=O)NC(C)(C)C)c3n2)c1 | RPS6KA2 | kinase activity, inhibitor, kinase panel | – | 0.1 µM | – | inhibition | 40% and 38%
NC(=O)C[C@H]1CCc2sc3ncnc(O[C@H]4CC[C@H](N5CCOCC5)CC4)c3c21 | RPS6KA2 | radioisotope kinase | – | 10 µM | – | inhibition | 25%
CN1CC[C@@H](COc2cnc(C#N)cc2-c2ccn3nc(NC(=O)C4CC4)cc3c2)C1 | RPS6KA2 | inhibitor, KinaseProfiler panel | – | 1 µM | – | inhibition | 35%
Cc1nc2c(F)cc(-c3nc(Nc4ccc(CNC(=O)CCCCCCC(=O)NO)cc4)ncc3F)cc2n1C(C)C | RPS6KA2 | enzyme activity, inhibitor | – | 1 µM | – | inhibition | 78%
COCC12C(=O)NC3C4(C(OC)CC1O)C1CC5(O)C(OC)C(O)C(OC(C)=O)(C1C5OC(=O)c1ccccc1)C3(O)C(OC)C24 (centres unmarked) | RPS6KA2 | kinase activity, inhibitor, ProQinase kinase profiling | – | 25 µM | relative to: control | remaining activity | 106% and 111%
NC(=O)[C@@H](O)C[C@H]1CCc2sc3ncnc(O[C@H]4CC[C@H](N5CCOCC5)CC4)c3c21 | RPS6KA2 | radioisotope kinase | – | 10 µM | – | inhibition | 38%
N[C@H]1CC[C@H](Nc2nccc(-c3cccnc3Oc3ccc(NC(=O)NC4CC4)c4ccccc34)n2)CC1 | RPS6KA2 | kinobead competition pulldown | HEK293/HCT116 lysate mixture | 10 µM, 1 h, 4 °C | lower = stronger competition | log2 LFQ intensity | 18.5 and 20.7 and 19.4 and 18.8
COc1c(OCCCN2CCOCC2)ccc2c1N=C(NC(=O)c1cnc(N)nc1)N1CCN=C21 | RPS6KA2 | kinase activity, inhibitor | – | 1 µM | relative to: untreated control | remaining activity | 102%
COc1ccc(NC(=O)Nc2ccc3c(c2)C(=O)N(C(C)CO)CC(C)C(CN(C)Cc2ccc4c(c2)OCO4)O3)cc1 (centres unmarked) | RPS6KA2 | kinase activity, KinaseProfiler | – | 0.03 µM, species human | relative to: control | remaining activity | 97%
CNC(=O)C[C@H](Cc1ccc(C#N)cc1)NC(=O)c1cc(-c2ccc(CN[C@H](C)c3ccc(C)cc3)o2)ccc1Cl | RPS6KA2 | enzyme activity, inhibitor | – | 1 µM | – | activity vs control | 104%
Nc1ncc(-c2cc(-c3cnn(CC(F)(F)F)c3)ncc2F)nc1C(=O)NC1CNCC(F)C1 (centres unmarked) | RPS6KA2 | enzyme activity | – | 1 µM | relative to: DMSO control | remaining activity | 42%
O=c1c(-c2ccc(Cl)c(CN3CCOCC3)c2)coc2cc(O)ccc12 | RPS6KA2 | enzyme activity, inhibitor | – | 1 µM | – | remaining activity | 95%

A few entries again:
Structure (SMILES) | target | test | system | setting | scale | quantity | value
COc1ccc(C(=O)/C=C/c2ccccc2-c2c[nH]c3ccc(C#N)cc23)c(O)c1 | RPS6KA2 | inhibitor | – | 20 µM | – | inhibition | 7%
